# Results gathered from unrelated publications.
# Every numbered part comes from another study and shows a few of its results, in no order.

# Study 1
# Target: Histone acetyltransferase KAT6A, winged helix 1, GST fusion (KAT6A, Homo sapiens, UniProt Q92794, residues 1-85)
# Method: protein binding microarray
# Molecule type: double-stranded DNA, one strand shown
# Sample: in vitro
# Tested at: not given
# Notes: 8-mer, flanks averaged, mean of 2 arrays, mostly near background
# Reference: not given
# Direction: higher = stronger binding
# Target sequence (chain): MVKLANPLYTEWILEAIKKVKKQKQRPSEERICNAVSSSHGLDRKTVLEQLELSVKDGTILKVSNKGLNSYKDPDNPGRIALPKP
Strand,E-score
CACGTAGA,-0.236
CAACTCCC,-0.000395
CCTGAAGC,-0.0576
ACGTGAAC,-0.0765
ACCTATAC,-0.00995
CATGACCA,-0.224
CGCAATAG,0.124
AGTTGCGC,0.261
TGCAGAAA,-0.0758
AGATCTTA,-0.118
CCCGCATA,0.36
GCTCAGAC,-0.155
CTCTTACC,-0.0286
AAAGACTG,-0.125
AGTGAGTG,-0.239
ACGGGTTA,0.347
GCAGGAGC,0.0215
CGGTCTTC,0.0738
CTTGCCAA,-0.276
GATCGAGC,0.0363
AAGGGCGA,0.0544
CGCAGGTC,0.147
CGACTTCC,0.0439
CAACTTTC,-0.132
ATATGGCC,0.0452

# Study 2
# Target: Sal-like protein 4, full length isoform B (SALL4, Homo sapiens, UniProt Q9UJQ4-2, residues 1-616)
# Method: universal PBM
# Molecule type: double-stranded DNA, one strand shown
# Sample: in vitro
# Tested at: not given
# Notes: 8-mer, flanks averaged, mean of replicates
# Direction: higher = stronger binding
Strand,E-score
CTATCCTA,-0.00437
TCAGATGA,0.104
AGCACCAT,-0.0898
AGGGGGAG,-0.157
AGCGAGAA,0.0599
ATGTACCC,-0.0748
ACAGGATC,-0.138
AGCGAAAT,0.136
CCTCCGCG,-0.346
GTTAAAGA,0.119
CGGCTCGA,-0.298
AAGGTACT,0.0638
AGTTTTCA,0.23
CATAGAGG,0.0372
ATCTACGA,0.12
CTTGAATC,0.144
TCAAATCA,0.191
CCTACGTA,0.18
CCGCATGC,-0.142
CTCTGCCA,-0.153
AGTTTGTG,-0.0176
CTCCACGC,-0.157
CTAGGGAA,0.00259
GCTATTGA,0.0521
ATGTCTTC,0.103

# Study 3
# Target: Prothrombin, mature alpha-thrombin (F2, Homo sapiens, UniProt P00734)
# Method: aptamer microarray, sandwich
# Molecule type: DNA with 2'F-ANA
# Sample: in vitro
# Tested at: 200 nM
# Notes: whole 15-mer aptamer, many near background
# Together with: Cy3 exosite-II aptamer, 400 nM
# Direction: higher = stronger binding
# Strand: GGTTGGTGTGGTTGG
Modification,mean fluorescence intensity
2'F-ANA at 1 2 4 5 7 10 11 12,49.8 a.u.
2'F-ANA at 2 5 6 8 13 15,57.3 a.u.
2'F-ANA at 1 2 3 4 6 7 8 11 14,101 a.u.
2'F-ANA at 1 2 4 5 8 10 11 14,48.4 a.u.
2'F-ANA at 1 2 3 5 13,109 a.u.
2'F-ANA at 2 3 4 6 9 10 11 13 14,202 a.u.
2'F-ANA at 1 2 3 6 7 8 9 13,155 a.u.
2'F-ANA at 3 5 7 11 14 15,56.6 a.u.
2'F-ANA at 2 3 5 7 10 12 13 14 15,56.2 a.u.
2'F-ANA at 2 5 6 7 9 11 13 15,56.5 a.u.
2'F-ANA at 1 6 7 8 9 12 13 15,298 a.u.
2'F-ANA at 1 3 5 9 11 13,53.7 a.u.
2'F-ANA at 2 3 4 5 6 7 8 10 14 15,65.9 a.u.
2'F-ANA at 1 3 6 11 12 13 15,378 a.u.
2'F-ANA at 1 3 6 9 11 12 13 14 15,89.9 a.u.
2'F-ANA at 2 3 5 6 10 11 14,64.1 a.u.
2'F-ANA at 3 4 5 6 7 8 10 11 12 13 14 15,81.2 a.u.
2'F-ANA at 2 5 6 9 10 11,55.2 a.u.
2'F-ANA at 2 3 5 6 7 10 11 12 14,47 a.u.
2'F-ANA at 1 8 9 10 15,58.6 a.u.
2'F-ANA at 1 2 3 4 5 6 7 12 13,87.3 a.u.
2'F-ANA at 1 2 4 6 11 12 13,134 a.u.
2'F-ANA at 1 2 5 7 10 11 13 14 15,80.2 a.u.
2'F-ANA at 3 5 7 8 9 10 11 13,70.7 a.u.

# Study 4
# Target: RNA binding protein fox-1 homolog 2, RRM domain, GST-SBP tag (RBFOX2, Homo sapiens, UniProt O43251-10, residues 100-194)
# Method: RNA Bind-n-Seq
# Molecule type: RNA
# Sample: in vitro
# Tested at: 365 nM
# Notes: natural RNA segment, single round, ends assumed
# Reference: no-protein control
# Direction: higher = stronger binding
# Constant ends, left off below: GGGAGUUCUACAGUCCGACGAUC … UGGAAUUCUCGGGUGCCAA
# Construct (chain): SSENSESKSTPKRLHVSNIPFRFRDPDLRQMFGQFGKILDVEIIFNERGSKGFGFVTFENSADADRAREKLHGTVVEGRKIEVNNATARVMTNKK
Strand,RBNS enrichment (R)
GUCUUUAAGCCACGUCUCUGAAAUCUUGUGAGGGGUGAAGAAAGAGGACUGGAGAUGAAUGGACAAUAUGAUCAAAGACUCAUUUUUAGGCCUUGAAGAGGCCGAGCUUU,0.81
UAAAGCAUGACAUAAAAGCCCAAUUCAGAUCCUACUAAUAAAACAAGCUCCAAUGUAUUAUGGAAACAUGUGCUUUUACGCCUCCAAUAAAACUAUGUUAUCGAUGGGCU,5.33
GCGGUCAUCCUAUCGGCGUGGCCUAGGUCCCUUGUGUGUGUAGCACAUCCCUGCUUUUGACUGAACACUGCACAGAAGCCCCUGAAAUAGGGCCUCUCCCUCGUUGUCAU,0.272
GACAGGUGAGGAUCAGCAGGGUCCACGUGUCUGCUGUUGCCAGCAAAGGGGGUCACUGGCUUUACCUGGAGCCUGGCCAGCUAGGUAGCUGGACGUAUAUAAAGGGUCCU,0.308
AUAGUGUUCACAAACUGUGAAAAUAGUGUAAGAACUGUACAUUGUGAGCUCUGGUUAUUUUUCUCUUGUACCAUAUGAAAGUAUAUAAAAAUUAUCAAAAAGCUGAUGUG,0.434
CAACCGCCGACGGGCCAGCAAGGCCAGUCUGCCCACACUCACCAAGGACACCAAGAAGCAGGUACUGCCGCCUUGCAGCUGGCGCACAGCCAGGAGGACUCCAGCCGGUG,0.221
AUCUUGUACAACUGAGAAGAAUCAUACUUUGACCUACCUUGUAGAGAUGUGAGGAUUUAGAUGUUUGCUAACUUCAAAACUGUGCUUGAAUAGACUAAUAAUAUAUGCUC,0.515
GAGUACCCCAGGCAGUUUCUCAGCCUCGUCCGUUGUGUGGAGGGAAUACUGAAUUCAGUUAUCUCACCUGACUGCUUUCCUGCCCUCAGACCUGGACACUGGGCCUCAGC,0.265

# Excerpt of the above (study 3):
Modification,mean fluorescence intensity
2'F-ANA at 2 5 6 8 13 15,57.3 a.u.
2'F-ANA at 1 2 3 4 6 7 8 11 14,101 a.u.
2'F-ANA at 1 2 4 5 8 10 11 14,48.4 a.u.
2'F-ANA at 1 2 3 5 13,109 a.u.
